Assay results from different studies.
Numbered parts are unrelated; each lists some results of a single study.
Sequence of UniProt P07949 (whole entry, unmodified, looked up): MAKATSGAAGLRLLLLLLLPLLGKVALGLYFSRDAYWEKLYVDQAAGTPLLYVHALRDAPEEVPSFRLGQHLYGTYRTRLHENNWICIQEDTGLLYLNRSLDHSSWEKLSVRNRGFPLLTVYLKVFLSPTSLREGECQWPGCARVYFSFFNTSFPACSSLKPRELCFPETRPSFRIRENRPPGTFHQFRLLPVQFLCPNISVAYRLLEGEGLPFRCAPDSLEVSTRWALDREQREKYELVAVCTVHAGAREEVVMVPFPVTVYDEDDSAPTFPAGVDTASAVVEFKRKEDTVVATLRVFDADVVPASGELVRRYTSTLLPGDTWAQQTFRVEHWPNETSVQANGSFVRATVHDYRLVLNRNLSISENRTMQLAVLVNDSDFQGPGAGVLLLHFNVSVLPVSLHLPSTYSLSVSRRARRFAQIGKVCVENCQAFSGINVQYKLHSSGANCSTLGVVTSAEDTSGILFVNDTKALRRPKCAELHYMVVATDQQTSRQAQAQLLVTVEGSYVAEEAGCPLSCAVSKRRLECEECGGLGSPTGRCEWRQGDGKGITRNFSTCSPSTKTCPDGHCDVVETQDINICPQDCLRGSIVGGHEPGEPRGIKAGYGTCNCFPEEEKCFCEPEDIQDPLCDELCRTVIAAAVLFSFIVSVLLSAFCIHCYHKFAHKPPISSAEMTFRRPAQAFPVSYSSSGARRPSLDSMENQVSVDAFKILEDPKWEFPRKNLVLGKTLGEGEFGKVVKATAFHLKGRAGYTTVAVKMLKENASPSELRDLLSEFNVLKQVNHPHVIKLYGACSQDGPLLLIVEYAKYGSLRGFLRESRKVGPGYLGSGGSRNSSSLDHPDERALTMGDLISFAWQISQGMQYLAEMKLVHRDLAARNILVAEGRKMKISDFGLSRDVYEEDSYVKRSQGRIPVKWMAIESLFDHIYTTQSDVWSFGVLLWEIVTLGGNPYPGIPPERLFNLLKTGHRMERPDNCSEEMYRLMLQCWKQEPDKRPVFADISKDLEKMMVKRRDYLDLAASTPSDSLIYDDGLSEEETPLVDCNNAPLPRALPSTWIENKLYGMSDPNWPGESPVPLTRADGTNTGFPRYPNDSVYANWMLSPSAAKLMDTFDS
Sequence of UniProt Q14680 (whole entry, looked up): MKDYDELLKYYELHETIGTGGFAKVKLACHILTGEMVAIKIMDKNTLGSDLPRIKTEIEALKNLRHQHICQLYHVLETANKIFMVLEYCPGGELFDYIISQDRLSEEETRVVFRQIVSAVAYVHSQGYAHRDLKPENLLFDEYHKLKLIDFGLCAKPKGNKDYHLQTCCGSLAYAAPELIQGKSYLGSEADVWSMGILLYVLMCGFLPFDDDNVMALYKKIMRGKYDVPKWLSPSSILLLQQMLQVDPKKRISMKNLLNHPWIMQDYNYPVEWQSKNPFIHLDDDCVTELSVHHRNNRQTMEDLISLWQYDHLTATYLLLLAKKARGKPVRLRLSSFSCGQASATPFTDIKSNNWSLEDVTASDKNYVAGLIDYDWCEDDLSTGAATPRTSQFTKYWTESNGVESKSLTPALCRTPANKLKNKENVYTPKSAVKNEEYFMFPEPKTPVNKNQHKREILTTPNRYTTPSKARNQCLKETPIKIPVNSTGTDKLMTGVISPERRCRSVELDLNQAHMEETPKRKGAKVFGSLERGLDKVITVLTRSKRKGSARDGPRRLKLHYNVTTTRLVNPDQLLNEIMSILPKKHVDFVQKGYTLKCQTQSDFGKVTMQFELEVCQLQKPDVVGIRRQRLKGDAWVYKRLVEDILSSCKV
Sequence of UniProt O96017 (whole entry, looked up): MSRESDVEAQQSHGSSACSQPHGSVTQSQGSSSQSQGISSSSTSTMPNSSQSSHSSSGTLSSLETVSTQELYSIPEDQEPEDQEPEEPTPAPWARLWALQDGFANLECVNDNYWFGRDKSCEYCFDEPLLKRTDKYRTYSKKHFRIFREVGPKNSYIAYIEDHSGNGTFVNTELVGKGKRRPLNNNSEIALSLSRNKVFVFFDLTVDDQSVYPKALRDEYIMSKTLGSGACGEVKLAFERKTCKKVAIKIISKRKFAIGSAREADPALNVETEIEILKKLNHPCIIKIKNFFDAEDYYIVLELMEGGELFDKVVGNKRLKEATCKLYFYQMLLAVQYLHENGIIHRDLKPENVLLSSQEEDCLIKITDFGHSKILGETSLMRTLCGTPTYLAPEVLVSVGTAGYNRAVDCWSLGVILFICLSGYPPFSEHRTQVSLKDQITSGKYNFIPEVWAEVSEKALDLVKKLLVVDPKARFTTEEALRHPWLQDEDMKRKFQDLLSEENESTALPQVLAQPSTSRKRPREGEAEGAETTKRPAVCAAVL
Sequence of UniProt Q04771 (whole entry, looked up): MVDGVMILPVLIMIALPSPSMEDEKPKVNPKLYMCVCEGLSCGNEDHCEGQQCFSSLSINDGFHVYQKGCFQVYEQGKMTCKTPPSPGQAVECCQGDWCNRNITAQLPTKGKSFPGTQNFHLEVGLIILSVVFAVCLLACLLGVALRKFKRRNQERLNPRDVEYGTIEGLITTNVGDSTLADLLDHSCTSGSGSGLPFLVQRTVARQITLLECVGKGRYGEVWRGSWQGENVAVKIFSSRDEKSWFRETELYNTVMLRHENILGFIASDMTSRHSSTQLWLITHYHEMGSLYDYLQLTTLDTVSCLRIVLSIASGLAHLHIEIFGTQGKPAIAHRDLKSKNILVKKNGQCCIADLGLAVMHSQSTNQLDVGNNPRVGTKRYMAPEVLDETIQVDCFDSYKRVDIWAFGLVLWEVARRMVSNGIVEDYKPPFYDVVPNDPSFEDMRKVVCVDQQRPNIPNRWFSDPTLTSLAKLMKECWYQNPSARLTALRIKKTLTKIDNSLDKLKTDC
Sequence of UniProt Q9H4B4 (whole entry, looked up): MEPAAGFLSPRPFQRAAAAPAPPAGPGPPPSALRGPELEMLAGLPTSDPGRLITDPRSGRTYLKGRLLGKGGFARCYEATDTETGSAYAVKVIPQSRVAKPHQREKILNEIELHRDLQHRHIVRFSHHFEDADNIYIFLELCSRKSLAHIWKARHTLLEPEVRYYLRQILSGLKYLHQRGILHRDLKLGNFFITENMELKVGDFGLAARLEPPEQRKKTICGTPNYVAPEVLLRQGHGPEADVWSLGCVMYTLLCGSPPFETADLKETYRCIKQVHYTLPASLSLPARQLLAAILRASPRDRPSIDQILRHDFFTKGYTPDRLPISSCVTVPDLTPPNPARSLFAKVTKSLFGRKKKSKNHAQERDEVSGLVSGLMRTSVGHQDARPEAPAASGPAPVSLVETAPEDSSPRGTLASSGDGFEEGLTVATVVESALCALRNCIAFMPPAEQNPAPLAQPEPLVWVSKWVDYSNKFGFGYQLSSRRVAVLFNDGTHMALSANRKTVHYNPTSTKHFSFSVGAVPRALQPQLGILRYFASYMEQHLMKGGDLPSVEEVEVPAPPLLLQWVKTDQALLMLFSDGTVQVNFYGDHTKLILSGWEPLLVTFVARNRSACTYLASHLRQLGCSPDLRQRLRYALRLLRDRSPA
Sequence of UniProt Q13163 (whole entry, looked up): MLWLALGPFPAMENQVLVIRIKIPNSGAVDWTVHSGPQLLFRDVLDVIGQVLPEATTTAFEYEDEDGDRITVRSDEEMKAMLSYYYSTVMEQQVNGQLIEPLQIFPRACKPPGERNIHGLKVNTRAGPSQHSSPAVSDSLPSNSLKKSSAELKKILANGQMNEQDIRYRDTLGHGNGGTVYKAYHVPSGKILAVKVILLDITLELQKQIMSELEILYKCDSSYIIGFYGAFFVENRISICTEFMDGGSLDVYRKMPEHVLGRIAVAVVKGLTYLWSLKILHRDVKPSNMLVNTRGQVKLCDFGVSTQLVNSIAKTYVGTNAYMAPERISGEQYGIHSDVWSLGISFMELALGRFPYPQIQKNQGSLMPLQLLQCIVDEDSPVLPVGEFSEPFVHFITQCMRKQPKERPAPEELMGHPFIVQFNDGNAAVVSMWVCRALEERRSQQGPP
Sequence of UniProt P45984 (whole entry, looked up): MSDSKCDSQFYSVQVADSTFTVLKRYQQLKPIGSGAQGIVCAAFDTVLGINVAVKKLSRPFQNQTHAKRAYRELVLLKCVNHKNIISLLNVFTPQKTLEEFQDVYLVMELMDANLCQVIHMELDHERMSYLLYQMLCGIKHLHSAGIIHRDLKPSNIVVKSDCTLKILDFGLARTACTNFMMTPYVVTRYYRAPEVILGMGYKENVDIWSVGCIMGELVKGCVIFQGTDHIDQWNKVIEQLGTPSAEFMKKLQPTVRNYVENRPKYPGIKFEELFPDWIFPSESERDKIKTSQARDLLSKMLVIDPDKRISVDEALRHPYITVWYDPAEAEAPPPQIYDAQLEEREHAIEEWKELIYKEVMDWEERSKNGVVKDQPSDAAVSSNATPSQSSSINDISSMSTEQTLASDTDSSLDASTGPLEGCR
Sequence of UniProt Q00535 (whole entry, looked up): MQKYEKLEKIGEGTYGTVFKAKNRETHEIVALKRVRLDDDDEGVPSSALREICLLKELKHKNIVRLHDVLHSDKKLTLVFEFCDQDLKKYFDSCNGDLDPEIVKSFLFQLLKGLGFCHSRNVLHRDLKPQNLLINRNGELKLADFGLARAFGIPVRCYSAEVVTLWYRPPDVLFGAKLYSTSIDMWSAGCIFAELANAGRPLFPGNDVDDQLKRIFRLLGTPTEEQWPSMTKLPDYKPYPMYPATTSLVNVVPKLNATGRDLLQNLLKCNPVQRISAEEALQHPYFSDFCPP
Sequence of UniProt Q9BXA7 (whole entry, looked up): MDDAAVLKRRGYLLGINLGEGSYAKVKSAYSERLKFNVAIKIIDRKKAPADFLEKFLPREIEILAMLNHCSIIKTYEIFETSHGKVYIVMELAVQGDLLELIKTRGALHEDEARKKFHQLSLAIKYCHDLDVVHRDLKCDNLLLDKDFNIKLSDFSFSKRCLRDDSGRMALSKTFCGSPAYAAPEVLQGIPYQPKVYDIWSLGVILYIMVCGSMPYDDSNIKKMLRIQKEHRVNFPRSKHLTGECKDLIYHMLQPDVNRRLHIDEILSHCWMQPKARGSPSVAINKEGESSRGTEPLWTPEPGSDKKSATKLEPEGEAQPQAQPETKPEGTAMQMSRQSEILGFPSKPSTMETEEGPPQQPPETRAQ

Block 1 — organism: Sarcocystis neurona; effect on: parasite activity; concentration: concentration not given
SMILES	activity class
N[C@H](Cc1cc(I)c(Oc2ccc(O)c(I)c2)c(I)c1)C(=O)O	inactive
C[C@]12C=CC(=O)C=C1CC[C@@H]1[C@@H]2[C@@H](O)C[C@@]2(C)[C@H]1CC[C@]2(O)C(=O)COC(=O)CCC(=O)[O-].[Na+]	inactive
COc1ccnc(C[S+]([O-])c2nc3ccc(OC(F)F)cc3[nH]2)c1OC (stereo not shown)	inactive
COc1cc(OC)c(C(=O)CCCN2CCCC2)c(OC)c1.Cl	inactive
CC(O)CO.N[C@@H](C(=O)N[C@@H]1C(=O)N2C(C(=O)O)=C(CSc3cn[nH]n3)CS[C@H]12)c1ccc(O)cc1	inactive
CN(CCOc1ccc(CC2SC(=O)NC2=O)cc1)c1ccccn1.Cl (stereo not shown)	inactive
CC1CCN(CCCC(=O)c2ccc(F)cc2)CC1.Cl	inactive
CCN(CC)CCNC(=O)c1cc(Cl)c(N)cc1OC.Cl	inactive
Br.O=C1CC2(CCCC2)CC(=O)N1CCNCC1COc2ccccc2O1 (stereo not shown)	inactive
OC[C@H]1O[C@@H](n2cnc3c(NC4CCCC4)nc(Cl)nc32)[C@H](O)[C@@H]1O	inactive
O=C1c2c(O)ccc(O)c2C(=O)c2c(NCCNCCO)ccc(NCCNCCO)c21	inactive
C[C@H](N[C@@H](CCc1ccccc1)C(=O)O)C(=O)N1CCC[C@H]1C(=O)O	inactive
Cl.NC1CCN(c2cccc(Cl)n2)CC1	inactive
Cl.Cn1c(NCCN(CCO)CCCc2ccc([N+](=O)[O-])cc2)cc(=O)n(C)c1=O	inactive
Cl.Nc1nc2ccc(OC(F)(F)F)cc2s1	inactive
C[C@]12CCC(=O)C=C1CC[C@@H]1[C@@H]2CC[C@@]2(C)[C@H]1CC[C@]2(O)C(=O)CO	inactive
CC1=C(C(=O)O)N2C(=O)[C@@H](NC(=O)[C@H](N)c3ccccc3)[C@H]2SC1.O	inactive

Block 2 — effect on: cell-free assay; technique: competition with immobilised ligand; concentration: 1 µM
SMILES: Cc1nc(C2CCN(C(=O)c3ccc(OC(F)(F)F)cc3N)CC2)c2ncc(N3CCN(C)CC3)cc2n1
target	remaining binding [%]
Proto-oncogene tyrosine-protein kinase receptor Ret (RET, Homo sapiens, UniProt P07949, V804L)	73
Atypical kinase COQ8B, mitochondrial (COQ8B, Homo sapiens, UniProt Q96D53)	93
Mitogen-activated protein kinase 10 (MAPK10, Homo sapiens, UniProt P53779)	100
NUAK family SNF1-like kinase 2 (NUAK2, Homo sapiens, UniProt Q9H093)	81
Mitogen-activated protein kinase 7 (MAPK7, Homo sapiens, UniProt Q13164)	22
Tyrosine-protein kinase CSK (CSK, Homo sapiens, UniProt P41240)	100
Dual specificity mitogen-activated protein kinase kinase 5 (MAP2K5, Homo sapiens, UniProt Q13163)	83
Serine/threonine-protein kinase pim-2 (PIM2, Homo sapiens, UniProt Q9P1W9)	100
Serine/threonine-protein kinase D2 (PRKD2, Homo sapiens, UniProt Q9BZL6)	92
Mitogen-activated protein kinase 12 (MAPK12, Homo sapiens, UniProt P53778)	100
Cyclin-dependent kinase 16 (CDK16, Homo sapiens, UniProt Q00536)	100
Testis-specific serine/threonine-protein kinase 1 (TSSK1B, Homo sapiens, UniProt Q9BXA7)	100
G protein-coupled receptor kinase 4 (GRK4, Homo sapiens, UniProt P32298)	96
Interleukin-1 receptor-associated kinase 1 (IRAK1, Homo sapiens, UniProt P51617)	100
Receptor tyrosine-protein kinase erbB-2 (ERBB2, Homo sapiens, UniProt P04626)	100
Serine/threonine-protein kinase tousled-like 1 (TLK1, Homo sapiens, UniProt Q9UKI8)	100
Mitogen-activated protein kinase 15 (MAPK15, Homo sapiens, UniProt Q8TD08)	100
Proto-oncogene tyrosine-protein kinase receptor Ret (RET, Homo sapiens, UniProt P07949)	100
Rhodopsin kinase GRK7 (GRK7, Homo sapiens, UniProt Q8WTQ7)	81
3-phosphoinositide-dependent protein kinase 1 (PDPK1, Homo sapiens, UniProt O15530)	93
Ephrin type-B receptor 4 (EPHB4, Homo sapiens, UniProt P54760)	92
Serine/threonine-protein kinase SIK3 (SIK3, Homo sapiens, UniProt Q9Y2K2)	91
5'-AMP-activated protein kinase catalytic subunit alpha-2 (PRKAA2, Homo sapiens, UniProt P54646)	100
Activin receptor type-1 (ACVR1, Homo sapiens, UniProt Q04771)	100
Epidermal growth factor receptor (EGFR, Homo sapiens, UniProt P00533)	86

Block 3 — effect on: enzyme activity; mode: inhibitor; concentration: 0.5 µM; reference: control
Compound: CC(C)(C)n1nc(Cc2cccc3ccccc23)c2c(N)ncnc21
target	remaining activity [%]
Tyrosine-protein kinase Lyn, isoform B (LYN, Homo sapiens, UniProt P07948)	74.8
Death-associated protein kinase 2 (DAPK2, Homo sapiens, UniProt Q9UIK4)	101
TGF-beta receptor type-2 (TGFBR2, Homo sapiens, UniProt P37173)	108
Protein kinase C alpha type (PRKCA, Homo sapiens, UniProt P17252)	102
Mitogen-activated protein kinase kinase kinase 3 (MAP3K3, Homo sapiens, UniProt Q99759)	98.8
Death-associated protein kinase 1 (DAPK1, Homo sapiens, UniProt P53355)	87.3
STE20/SPS1-related proline-alanine-rich protein kinase (STK39, Homo sapiens, UniProt Q9UEW8)	100
Serine/threonine-protein kinase Chk2 (CHEK2, Homo sapiens, UniProt O96017)	92
G protein-coupled receptor kinase 3 (GRK3, Homo sapiens, UniProt P35626)	101
Mitogen-activated protein kinase 9 (MAPK9, Homo sapiens, UniProt P45984)	80.3
Cyclin-dependent kinase 5, with p25 (CDK5, Homo sapiens, UniProt Q00535)	109
Protein kinase C beta type, isoform beta-I (PRKCB, Homo sapiens, UniProt P05771)	89.8

Block 4 — effect on: enzyme activity; mode: inhibitor; concentration: 1 µM
Structure (SMILES): CC(C)S(=O)(=O)c1ccc2nccc(Nc3ccc4sc(C5CCCC5)nc4c3)c2c1
target	activity vs control [%]
Dual specificity protein kinase CLK4 (CLK4, Homo sapiens, UniProt Q9HAZ1)	93
Serine/threonine-protein kinase PLK3 (PLK3, Homo sapiens, UniProt Q9H4B4)	99
Maternal embryonic leucine zipper kinase (MELK, Homo sapiens, UniProt Q14680)	99
Myosin light chain kinase, smooth muscle (MYLK, Homo sapiens, UniProt Q15746)	95
Serine/threonine-protein kinase 35 (STK35, Homo sapiens, UniProt Q8TDR2)	99.5
Homeodomain-interacting protein kinase 1 (HIPK1, Homo sapiens, UniProt Q86Z02)	99
MAP kinase-activated protein kinase 2 (MAPKAPK2, Homo sapiens, UniProt P49137)	89

A few entries again (block 3):
target	remaining activity [%]
Protein kinase C alpha type (PRKCA, Homo sapiens, UniProt P17252)	102
Mitogen-activated protein kinase kinase kinase 3 (MAP3K3, Homo sapiens, UniProt Q99759)	98.8
Death-associated protein kinase 1 (DAPK1, Homo sapiens, UniProt P53355)	87.3
STE20/SPS1-related proline-alanine-rich protein kinase (STK39, Homo sapiens, UniProt Q9UEW8)	100
Serine/threonine-protein kinase Chk2 (CHEK2, Homo sapiens, UniProt O96017)	92
